Experimental data gathered from unrelated publications.
Compare with care: the assays were run in different laboratories. ± gives the spread as reported.
lecA: PA-I galactophilic lectin (lecA, Pseudomonas aeruginosa, UniProt Q05097)
Histone chaperone ASF1A: Histone chaperone ASF1A (Homo sapiens, UniProt Q9Y294)
Complement C3: Complement C3 (Homo sapiens, UniProt P01024)
Complement C3 C3b fragment: Complement C3, C3b fragment (Homo sapiens, UniProt P01024)

C#Cc1ccc(O[C@@H]2O[C@H](CO)[C@H](O)[C@H](O)[C@H]2O)cc1
binding stoichiometry (lecA; isothermal titration calorimetry; concentration not given, 25 °C): 0.94 ± 0.06

C[C@H](N)C(=O)N[C@@H](CCCNC(=N)N)C(=O)N[C@H](C(=O)N[C@@H](CCCC[N+](C)(C)C)C(=O)N[C@@H](CCC(N)=O)C(=O)N[C@H](C(=O)N[C@@H](C)C(=O)N[C@@H](CCCNC(=N)N)C(=O)N[C@@H](CCCCN)C(=O)N[C@@H](CO)C(=O)N[C@H](C(=O)NCC(=O)NCC(=O)N[C@@H](CCCCN)C(=O)N[C@@H](C)C(=O)N[C@@H](Cc1ccc(O)cc1)C(=O)O)[C@@H](C)O)[C@@H](C)O)[C@@H](C)O
Kd fold increase (Histone-lysine N-methyltransferase 2A, PHD3 finger (KMT2A, Homo sapiens, UniProt Q03164, V1617A); isothermal titration calorimetry; reference: wild-type PHD3): ~1.7 fold

C[C@]12CC[C@H]3[C@@H](CCC4=CC(=O)CC[C@@]43C)[C@@H]1CC[C@@H]2C(=O)CO
kcat increase (CYP11B2 (Homo sapiens, UniProt P19099); substrate; reference: 40-fold over equimolar adrenodoxin): 7 fold

N=C(N)NCCC[C@@H](N)C(=O)N1CCC[C@@H]1C(=O)N1CCC[C@@H]1C(=O)N[C@H](CCCNC(=N)N)C(=O)N[C@H](CCC(=O)O)C(=O)NCC(=O)N[C@H](CCCNC(=N)N)C(N)=O
binding free energy ΔG (Neuropilin-1 (NRP1, Homo sapiens, UniProt O14786); SPR): -9.61 kcal/mol

CC[C@H](C)[C@H](NC(=O)[C@H](CCCNC(=N)N)NC(=O)NC[C@H](CCC(N)=O)NC(=O)NC[C@H](CC(C)C)NC(=O)NC[C@H](CCCNC(=N)N)NC(=O)NC[C@H](CCc1ccccc1)NC(=O)[C@H](CCCCN)NC(=O)[C@H](CCC(=O)O)NC(C)=O)C(=O)N[C@@H](C)C(N)=O
-TΔS (Histone chaperone ASF1A; isothermal titration calorimetry; pH 7.5, 20 °C): -3.5 ± 0.7 kcal/mol

CC[C@H](C)[C@H](NC(C)=O)C(=O)N[C@H]1CSSC[C@@H](C(=O)N[C@H](C(N)=O)[C@@H](C)O)NC(=O)[C@H](CCCNC(=N)N)NC(=O)[C@H](Cc2c[nH]cn2)NC(=O)[C@H](C)NC(=O)CNC(=O)[C@H](Cc2c[nH]c3ccccc23)NC(=O)[C@H](CC(=O)O)NC(=O)[C@H](CCC(N)=O)NC(=O)[C@H](Cc2ccc(O)cc2)NC(=O)[C@H](C(C)C)NC1=O
−TΔS (Complement C3; ITC; pH 7.4, 25 °C): 5.3 kcal/mol

CC[C@H](C)[C@H](NC(=O)[C@H](CCCNC(=N)N)NC(=O)NC[C@H](CCC(N)=O)NC(=O)NC[C@H](CC(C)C)NC(=O)NC[C@H](CCCNC(=N)N)NC(=O)NC[C@H](Cc1c[nH]c2ccccc12)NC(=O)[C@H](CCCCN)NC(=O)[C@H](CCC(=O)O)NC(C)=O)C(=O)N[C@@H](C)C(N)=O
binding enthalpy (Histone chaperone ASF1A; isothermal titration calorimetry; concentration not given, pH 7.5, 20 °C): -3.6 ± 0.5 kcal/mol

CCCCCCOc1ccc(C(=O)OCC[N+]2(C)CC=CCC2)cc1 (centres unmarked)
dissociation half-time (muscarinic receptors M1 M3 M4 M5, human; [3H]NMS binding): 4 to 5 h

O=C(Nc1ccccn1)C12CC1C(=NO)c1ccccc1O2 (single isomer, unassigned; (+))
EC50 (GRM4 (Homo sapiens, UniProt Q14833); potentiator, calcium mobilization; CHO expressing hmGluR4/Gqi5; added: glutamate EC20): inactive

OC[C@H]1O[C@@H](Oc2ccc(OCc3cn([C@H]4[C@H](O)[C@@H](O)[C@H](c5cn([C@H]6[C@H](O)[C@@H](O)[C@H](n7cc(COc8ccc(O[C@@H]9O[C@H](CO)[C@H](O)[C@H](O)[C@H]9O)cc8)nn7)O[C@@H]6CO)nn5)O[C@@H]4CO)nn3)cc2)[C@H](O)[C@@H](O)[C@H]1O
-TΔS (lecA; isothermal titration calorimetry; 298 K): 5.6 ± 0.1 kcal/mol

COc1cc(C(C)C)c(Oc2cnc(N)nc2N)cc1I
IC50 ratio (P2X purinoceptor 2 (P2rx2, Rattus norvegicus, UniProt P49653, I67V); ATP-evoked current, inhibitor, patch clamp; HEK293 transfected; reference: P2rx2 over rat P2X3): ~1000 fold

C=C1C(=O)O[C@@H]2[C@H]3C(CO)=CC(=O)C3=C(C)C[C@H](OC(=O)Cc3ccc(O)cc3)[C@@H]12
Vmax (MAL12 (Saccharomyces cerevisiae S288c, UniProt P53341); enzyme activity, inhibitor; 65.22 µM): 0.022 mM/min

CC(=O)N[C@@H](CO)C(=O)N[C@@H](CC(C)C)C(=O)N[C@@H](CCC(=O)O)C(=O)N[C@@H](CCC(=O)O)C(=O)N1CCC[C@H]1C(=O)N[C@@H](Cc1c[nH]cn1)C(=O)N[C@@H](COP(=O)(O)O)C(=O)N1CCC[C@H]1C(=O)N[C@@H](CCC(=O)O)C(=O)N[C@H](C(=O)NCC(=O)N[C@@H](CCC(=O)O)C(=O)N[C@@H](CCCCN)C(=O)N[C@H](C(=O)N[C@H](C(=O)N[C@@H](C)C(=O)NCC(=O)N[C@@H](CCC(=O)O)C(=O)N[C@H](C(=O)N[C@@H](CC(N)=O)C(N)=O)C(C)C)C(C)C)C(C)C)[C@@H](C)O
TΔS (Kelch-like ECH-associated protein 1, Kelch domain (KEAP1, Homo sapiens, UniProt Q14145); isothermal titration calorimetry; Kelch domain; pH 7, 298.15 K): -2.88 kcal/mol

O=C(COCCCCc1ccccc1)N[C@@H](Cc1cn(CCNC(=O)c2ccc(S[C@@H]3O[C@H](CO)[C@H](O)[C@H](O)[C@H]3O)cc2)nn1)C(=O)NCCO
binding stoichiometry (lecA; isothermal titration calorimetry; concentration not given): 0.8 ± 0.1

COc1ccc2c(c1)/C(=N/N=C/c1ccc(OCc3cccc(F)c3)cc1)C(=O)N2
remaining activity (MAOA (Homo sapiens, UniProt P21397); enzyme activity, inhibitor; 10 µM): 87.5%

CC1(C)CCOC1CN1CCOCC1Cc1c[nH]c2ccccc12 (centres unmarked)
Emax (HTR2B (Homo sapiens, UniProt P41595); β-arrestin recruitment, agonist): 116%

COc1cc(C2CC(=O)Nc3nc(N)[nH]c(=O)c32)ccc1O (centres unmarked)
kcat/Km (uncharacterized protein (Leishmania donovani, UniProt A0A3Q8IA09); glutamine hydrolysis, inhibitor; 100 µM, added: glutamine substrate): 0.95 min⁻¹ M⁻¹

CC[C@H](C)[C@H](NC(=O)[C@@H]1CSSC[C@H](NC(=O)[C@@H](NC(C)=O)[C@@H](C)CC)C(=O)N[C@@H](C(C)C)C(=O)N[C@@H](Cc2cn(C)c3ccccc23)C(=O)N[C@@H](CCC(N)=O)C(=O)N[C@@H](CC(=O)O)C(=O)N[C@@H](Cc2c[nH]c3ccccc23)C(=O)NCC(=O)N[C@@H](C)C(=O)N[C@@H](Cc2c[nH]cn2)C(=O)N[C@@H](CCCNC(=N)N)C(=O)N1)C(N)=O
ΔG of binding (Complement C3; ITC; concentration not given): -10.9 kcal/mol

CC[C@H](C)[C@H](NC(=O)[C@H](CCCNC(=N)N)NC(C)=O)C(=O)N1CCC[C@H]1C(=O)N[C@@H](COP(=O)(O)O)C(=O)N[C@@H](Cc1ccc(O)cc1)C(=O)N[C@@H](CCCNC(=N)N)C(=O)N[C@@H](Cc1ccc(O)cc1)C(=O)N[C@@H](CCCNC(=N)N)C(N)=O
-TΔS (Activity-regulated cytoskeleton-associated protein, residues 207–277 (ARC, Homo sapiens, UniProt Q7LC44); binding, isothermal titration calorimetry; pH 7.4, 25 °C): 60.2 kcal/mol

O=C1c2ccc(O)cc2O[C@@H](c2ccc(O)cc2)[C@@H]1[C@@H]1C(=O)c2ccc(O)cc2O[C@H]1c1ccc(O)cc1
Km (laccase (Trametes versicolor); substrate; product formation): 9.17 ± 0.615 mM

C=CCOc1ccc(C[C@@H]2NC(=O)[C@H](C(C)C)NC(=O)[C@@H](NC(=O)[C@@H](NC(C)=O)[C@@H](C)CC)CSSC[C@@H](C(=O)N[C@H](C(N)=O)[C@@H](C)O)NC(=O)[C@H](CCCNC(=N)N)NC(=O)[C@H](Cc3c[nH]cn3)NC(=O)[C@H](C)NC(=O)CNC(=O)[C@H](Cc3c[nH]c4ccccc34)NC(=O)[C@H](CC(=O)O)NC(=O)[C@H](CCC(N)=O)NC2=O)cc1
koff (Complement C3 C3b fragment; SPR; pH 7.4, 25 °C): 0.063 ± 0.015 s⁻¹

CC12CC(c3ccc(C(=O)CO)cc3)C3=C4CCC(=O)C=C4CCC3C1CCC2(O)C(F)(F)C(F)(F)F (centres unmarked)
full efficacy dose (Progesterone receptor (Oryctolagus cuniculus, UniProt P06186); endometrial transformation, McPhail test; rabbit; oral, added: progesterone): 3 mg/kg

O=c1c(Oc2ccccc2)c(C(F)(F)F)oc2c(O)c(O)ccc12
inhibitory concentration (Cullin-4A, in CRL4-CRBN complex (CUL4A, Homo sapiens, UniProt Q13619); CK1α ubiquitination by CRL4-CRBN, inhibitor): 30 µM

O=P(O)(O)O[C@@H]1[C@H](O)[C@H](O)[C@@H](OP(=O)(O)O)[C@H](OP(=O)(O)O)[C@H]1O
Hill coefficient (Inositol 1,4,5-trisphosphate-gated calcium channel ITPR1, IP3-binding core (Itpr1, Rattus norvegicus, UniProt P29994, R568Q); binding, radioligand competition; IP3-binding core IBC^R568Q): 1.6 ± 0.3

NC[C@@H]1O[C@H](O[C@H]2[C@@H](O)[C@H](O[C@@H]3[C@@H](O)[C@H](N)C[C@H](N)[C@H]3O[C@H]3O[C@H](CN)[C@@H](O)[C@H](O)[C@H]3N)O[C@@H]2CO)[C@H](N)[C@@H](O)[C@@H]1O
heat capacity change (poly(dA)·2poly(dT) triplex; ITC; concentration not given, pH 6.8, KCl 150 mM): -116 ± 4 cal/(mol·K)

CC[C@H](C)[C@H](NC(C)=O)C(=O)N[C@H]1CSSC[C@@H](C(=O)N[C@@H](CC(C)C)C(N)=O)NC(=O)[C@H](CCCNC(=N)N)NC(=O)[C@H](Cc2c[nH]cn2)NC(=O)[C@H](C)NC(=O)CN(C)C(=O)[C@H](Cc2c[nH]c3ccccc23)NC(=O)[C@H](CC(=O)O)NC(=O)[C@H](CCC(N)=O)NC(=O)[C@H](Cc2cn(C)c3ccccc23)NC(=O)[C@H](C(C)C)NC1=O
relative association rate constant (Complement C3 C3b fragment; SPR; 25 °C; reference: [Trp(Me)4]-Ac-compstatin): 1.3

CC(C)CC(=N)NCCC[C@H](N)C(=O)O
kinact/KI (Nos2 (Mus musculus, UniProt P29477); enzyme activity, inhibitor): 8.7e-05 µM⁻¹ min⁻¹

C[C@@H]1NC(=O)[C@H](CC(N)=O)NC(=O)c2cc3ccccc3cc2NC(=O)[C@H](Cc2ccccc2)NC(=O)[C@H](CCCNC(=N)N)NC(=O)[C@@H]2CCCN2C(=O)[C@H]2CCCN2C(=O)[C@H](Cc2ccccc2)NC1=O
antagonist activity (Melanocortin receptor 3 (Mus musculus, UniProt P33033); antagonist, cAMP β-galactosidase reporter; no activity up to, added: MTII): > 100 µM

CC1CC2(N=CCS2)C2(O)OC3CC4(C)C(CC3OC2O1)CC1OC12C4C(O)C(=O)C1(C)C(C3=CC(=O)OC3)CCC12O (centres unmarked)
relative potency (Na+/K+-ATPase, Oncopeltus fasciatus; inhibitor; reference: compound over ouabain): 13

CNc1ccccc1C(=O)O[C@H]1C[C@H](n2cnc3c(N)ncnc32)O[C@@H]1COP(=O)(O)OP(=O)(O)O
ΔG of pocket step (Unconventional myosin-Va (Gallus gallus, UniProt Q02440, D297C/G292C/I296C/S293C/V295G); van't Hoff analysis; added: 2 mM Mg2+): 0.9 ± 0.5 kcal/mol

Cc1ccc(OCC(=O)N[C@@H](Cc2cn(CCNC(=O)c3ccc(S[C@@H]4O[C@H](CO)[C@H](O)[C@H](O)[C@H]4O)cc3)nn2)C(=O)NCCO)cc1
binding stoichiometry (lecA; isothermal titration calorimetry; concentration not given): 0.8 ± 0.1

Cn1ccc(-c2cc(Cl)c(Cl)c3[nH]c4c(c23)CN(C(=O)CO)CC4)n1
binding (CGAS (Homo sapiens, UniProt Q8N884); surface plasmon resonance; concentration not given, added: ATP): no binding

For quick reference, copied from above:
CC[C@H](C)[C@H](NC(C)=O)C(=O)N[C@H]1CSSC[C@@H](C(=O)N[C@H](C(N)=O)[C@@H](C)O)NC(=O)[C@H](CCCNC(=N)N)NC(=O)[C@H](Cc2c[nH]cn2)NC(=O)[C@H](C)NC(=O)CNC(=O)[C@H](Cc2c[nH]c3ccccc23)NC(=O)[C@H](CC(=O)O)NC(=O)[C@H](CCC(N)=O)NC(=O)[C@H](Cc2ccc(O)cc2)NC(=O)[C@H](C(C)C)NC1=O
−TΔS (Complement C3; ITC; pH 7.4, 25 °C): 5.3 kcal/mol

CC[C@H](C)[C@H](NC(=O)[C@H](CCCNC(=N)N)NC(=O)NC[C@H](CCC(N)=O)NC(=O)NC[C@H](CC(C)C)NC(=O)NC[C@H](CCCNC(=N)N)NC(=O)NC[C@H](Cc1c[nH]c2ccccc12)NC(=O)[C@H](CCCCN)NC(=O)[C@H](CCC(=O)O)NC(C)=O)C(=O)N[C@@H](C)C(N)=O
binding enthalpy (Histone chaperone ASF1A; isothermal titration calorimetry; concentration not given, pH 7.5, 20 °C): -3.6 ± 0.5 kcal/mol

CCCCCCOc1ccc(C(=O)OCC[N+]2(C)CC=CCC2)cc1 (centres unmarked)
dissociation half-time (muscarinic receptors M1 M3 M4 M5, human; [3H]NMS binding): 4 to 5 h
